Results collected from several papers.
Lines come from different studies, so protocols differ. Several values in a cell are separate wells, animals, samples, runs or records. Numbers after ± are the reported error.

SMILES | assay | test system | conditions | tissue uptake
Cc1n[nH]c(C)c1CCCOc1cc(C(=O)NCCCCC(NC(=O)CN2CCN(CC(=O)[O-])CCN(CC(=O)[O-])CCN(CC(=O)[O-])CC2)C(=O)NCC2CCC(C(=O)NC(Cc3ccc4ccccc4c3)C(=O)NCCCCC(NC(=O)NC(CCC(=O)O)C(=O)O)C(=O)O)CC2)ccc1F.[68Ga+3] (centres unmarked) | PET/CT | mouse 22Rv1 xenograft, blood | 1 h | 8.23 ± 1.24 %ID/g
CCCC[C@H](NC(=O)CNC(=O)CNC(=O)[C@H](CCCCNC(=O)C(C)c1ccc(CC(C)C)cc1)NC(=O)CN1CCN(CC(=O)O)CCN(CC(=O)O)CCN(CC(=O)O)CC1)C(=O)N[C@H]1CC(=O)NCCCC[C@@H](C(N)=O)NC(=O)[C@H](Cc2c[nH]c3ccccc23)NC(=O)[C@H](CCCNC(=N)N)NC(=O)[C@@H](Cc2ccccc2)NC(=O)[C@H](Cc2c[nH]cn2)NC1=O (some centres unmarked) [lutetium-177 labelled] | – | C57 mouse, intestines | 2 h | 2.77 ± 0.88 %ID
O=C([O-])CN1CCN(CC(=O)O)CCN(CC(=O)[O-])CCN(CC(=O)NCC2CCC(C(=O)NC(Cc3ccc4ccccc4c3)C(=O)NCCCCC(NC(=O)NC(CCC(=O)O)C(=O)O)C(=O)O)CC2)CC1.[212Pb+2] (centres unmarked) | refers to: 212Pb | athymic mouse, C4-2 prostate xenograft, prostate | intravenous, 2 h | 2.49 ± 1.39 %ID/g
COc1cccc(OC)c1-c1cc(C(=O)NC2(C(=O)O)C3CC4CC(C3)CC2C4)nn1-c1ccc(C(=O)N(C)CCOCCN(C)C(=O)[C@H](CCCCNC(=O)[C@H](CC(C)C)NC(=O)C2OC2C(=O)O)NC(=O)CN2CCN(CC(=O)[O-])CCN(CC(=O)[O-])CCN(CC(=O)[O-])CC2)cc1C(C)C.[177Lu+3] (mixture of isomers) | – | mouse HT-29 xenograft, small intestine | 168 h post injection, biodistribution | 0.09 %ID/g
N#C[C@@H]1CC(F)(F)CN1C(=O)CNC(=O)c1ccnc2c(NC(=O)[C@H](CCCCNC(=O)CCOCCOCCOCCOCCOCCOCCNC(=O)CN3CCN(CC(=O)[O-])CCN(CC(=O)[O-])CCN(CC(=O)[O-])CC3)NC(=O)CCCc3ccc(I)cc3)cccc12.[177Lu+3] | – | mouse, U-87 MG tumour xenograft, brain | 96 h | 0.01 ± 0.02 %ID/g
[11CH3]N1CCC(NC(=O)c2cc(-c3c(O)cc(O)cc3Oc3ccc([N+](=O)[O-])cc3)on2)CC1 | – | NMRI mouse, healthy, kidneys | intravenous, 5.5 MBq, 2 min | 14.4 ± 0.6 %ID
COc1cccc(OC)c1-c1cc(C(=O)NC2(C(=O)O)C3CC4CC(C3)CC2C4)nn1-c1ccc(C(=O)N(C)CCCN(C)C(=O)[C@H](CCCCNC(=O)[C@H](CC(C)C)NC(=O)C2OC2C(=O)O)NC(=O)CN2CCN(CC(=O)[O-])CCN(CC(=O)[O-])CCN(CC(=O)[O-])CC2)cc1C(C)C.[177Lu+3] (mixture of isomers) | – | mouse, HT-29 xenograft, muscle | 24 h post injection | 0.13 %ID/g
CN(Cc1ccccc1)C(=O)CN1CCN(CC(=O)[O-])CCN(CC(=O)[O-])CC1.[44Sc+3] | – | BALB/c mouse, large intestine | intravenous, 1 h | 0.31 ± 0.06 %ID/g
COc1cccc(OC)c1-c1cc(C(=O)NC2(C(=O)O)C3CC4CC(C3)CC2C4)nn1-c1ccc(C(=O)N(C)CCOCCOCCN(C)C(=O)[C@H](CCCCNC(=O)[C@H](CC(C)C)NC(=O)C2OC2C(=O)O)NC(=O)CN2CCN(CC(=O)[O-])CCN(CC(=O)[O-])CCN(CC(=O)[O-])CC2)cc1C(C)C.[177Lu+3] (mixture of isomers) | – | mouse, HT-29 xenograft, spleen | 24 h post injection | 0.81 %ID/g
N#C[C@@H]1CC(F)(F)CN1C(=O)CNC(=O)c1ccnc2c(NC(=O)CCOCCOCCOCCOCCOCCOCCNC(=O)[C@H](CCCCNC(=O)CN3CCN(CC(=O)[O-])CCN(CC(=O)[O-])CCN(CC(=O)[O-])CC3)NC(=O)CCCc3ccc(I)cc3)cccc12.[177Lu+3] | – | mouse, U-87 MG tumour xenograft, salivary gland | 1 h | 4.53 ± 0.35 %ID/g
CN(Cc1ccccc1)C(=O)CN1CCN(CC(=O)[O-])CCN(CC(=O)N(C)Cc2ccccc2)CC1.[44Sc+3] | – | BALB/c mouse, small intestine | intravenous, 1 h | 8.56 ± 0.97 %ID/g
COc1ccc2c(c1)C(C)(C)C(/C=C/C1=C(Oc3ccc(C(=O)NCCCCOc4cc(CN(Cc5ccccn5)Cc5ccccn5)cc(CN(Cc5ccccn5)Cc5ccccn5)c4)cc3)C(=C/C=C3/N(CCCCS(=O)(=O)[O-])c4ccc(OC)cc4C3(C)C)CCC1)=[N+]2CCCCS(=O)(=O)[O-].O=[N+]([O-])[O-].O=[N+]([O-])[O-].[99Tc+].[C-]#[O+].[C-]#[O+].[C-]#[O+].[Zn+2] | – | BALB/c mouse, Staphylococcus aureus myositis, heart | 12 h | 2.03 %ID/g and 1.76 %ID/g and 3.08 %ID/g and 0.75 %ID/g
CCCC[C@H](NC(=O)CNC(=O)CNC(=O)[C@H](CCCCNC(=O)[C@H](CC(=O)O)NC(=O)C(C)c1ccc(CC(C)C)cc1)NC(=O)CN1CCN(CC(=O)O)CCN(CC(=O)O)CCN(CC(=O)O)CC1)C(=O)N[C@H]1CC(=O)NCCCC[C@@H](C(N)=O)NC(=O)[C@H](Cc2c[nH]c3ccccc23)NC(=O)[C@H](CCCNC(=N)N)NC(=O)[C@@H](Cc2ccccc2)NC(=O)[C@H](Cc2c[nH]cn2)NC1=O (some centres unmarked) [lutetium-177 labelled] | – | C57 mouse, kidneys | intravenous, 2 h, with: 10 µg NDP-MSH co-injection | 12.5 ± 0.96 %ID/g
O=C(O)CCCOc1ccc([18F])cc1-c1cc(-c2ccccc2C(F)(F)F)n(-c2ccccc2)n1 | – | mouse, small intestine | intravenous, dose not given, 5 min | 2.85 ± 0.09 %ID/g
COc1ccc(Nc2nc(Nc3ccc(OCCOCC[18F])cc3)ncc2Br)cc1 | – | ICR mouse, S180 sarcoma-bearing, blood | intravenous, 370 kBq in 100 µL, 5 min | 6.17 ± 0.36 %ID/g
CN(Cc1ccccc1)C(=O)CN1CCN(CC(=O)[O-])CCN(Cc2cccc(C(=O)[O-])n2)CC1.[44Sc+3] | – | BALB/c mouse, large intestine | intravenous, 1 h | 0.19 ± 0.04 %ID/g
CC[C@H](C)[C@H](NC(=O)C[C@H](NC(=O)CN1CCN2CCN(CC1)CC(=O)[O][Al]([18F])[O]C(=O)C2)C(=O)O)C(=O)N[C@H]1CCc2cccc3c2N(C1=O)[C@H](C(=O)NCc1cn[nH]n1)C3 | – | C57BL/6J mouse, MC-38 tumour, blood | 30 min post injection, anti-PD-1 treated | 1.16 ± 0.37 %ID/g
COc1cccc(OC)c1-c1cc(C(=O)NC2(C(=O)O)C3CC4CC(C3)CC2C4)nn1-c1ccc(C(=O)NCCNC(=O)[C@H](CCCCNC(=O)[C@H](CC(C)C)NC(=O)C2OC2C(=O)O)NC(=O)CN2CCN(CC(=O)[O-])CCN(CC(=O)[O-])CCN(CC(=O)[O-])CC2)cc1C(C)C.[177Lu+3] (mixture of isomers) | – | mouse, HT-29 xenograft, heart | 4 h post injection | 1.8 %ID/g
COc1ccc(Nc2nc(Nc3ccc(OCCOCCOCC[18F])cc3)ncc2Br)cc1 | – | ICR mouse, S180 sarcoma-bearing, blood | intravenous, 370 kBq in 100 µL, 120 min | 2.13 ± 0.14 %ID/g
CN(Cc1ccccc1)C(=O)CN1CCN(CC(=O)N(C)Cc2ccccc2)CCN(Cc2cccc(C(=O)[O-])n2)CC1.[44Sc+3] | – | BALB/c mouse, small intestine | intravenous, 1 h | 35.1 ± 14.8 %ID/g
O=C([O-])CN1CCN(CC(=O)[O-])CCN(CC(=O)NCC2CCC(C(=O)NC(Cc3ccc4ccccc4c3)C(=O)NCCCCC(NC(=O)NC(CCC(=O)O)C(=O)O)C(=O)O)CC2)CCN(CC(=O)[O-])CC1.[68Ga+3] (centres unmarked) | – | mouse 22Rv1 xenograft, kidney | 4 h | 1.13 ± 0.74 %ID/g
COc1cccc(OC)c1-c1cc(C(=O)NC2(C(=O)O)C3CC4CC(C3)CC2C4)nn1-c1ccc(C(=O)N(C)CCCN(C)CCCN(C)C(=O)[C@H](CCCCNC(=O)[C@H](CC(C)C)NC(=O)C2OC2C(=O)O)NC(=O)CN2CCN(CC(=O)[O-])CCN(CC(=O)[O-])CCN(CC(=O)[O-])CC2)cc1C(C)C.[177Lu+3] (mixture of isomers) | – | mouse, HT-29 xenograft, liver | 168 h post injection | 0.79 %ID/g
O=C([O-])CN1CCN(CC(=O)[O-])CCN(Cc2cccc(C(=O)[O-])n2)CC1.[18F-].[Sc+3] | – | BALB/c mouse, small intestine | intravenous, 1 h | 0.44 ± 0.12 %ID/g

For quick reference, copied from above:
SMILES | assay | test system | conditions | tissue uptake
COc1ccc(Nc2nc(Nc3ccc(OCCOCCOCC[18F])cc3)ncc2Br)cc1 | – | ICR mouse, S180 sarcoma-bearing, blood | intravenous, 370 kBq in 100 µL, 120 min | 2.13 ± 0.14 %ID/g
CN(Cc1ccccc1)C(=O)CN1CCN(CC(=O)N(C)Cc2ccccc2)CCN(Cc2cccc(C(=O)[O-])n2)CC1.[44Sc+3] | – | BALB/c mouse, small intestine | intravenous, 1 h | 35.1 ± 14.8 %ID/g
